Published values gathered from unrelated publications.
Values joined by “and” are separate records of one study, mostly repeats; a detail may differ. ± gives the spread as reported.

| Structure (SMILES) | cell line | test | test system | setting | scale | endpoint | result |
| --- | --- | --- | --- | --- | --- | --- | --- |
| CCS(=O)(=O)c1nc(C2CC2)cc(C(F)(F)F)n1 | HeLa Kyoto | RelA nuclear import, high content imaging |  | 50 µM, 3 h, together with: 1 µM PMA, 60 min |  | cells with nuclear RelA | 13.4% and 6.66% |
| CCN1CCN(Cc2ccc(Nc3ncc(F)c(-c4cc(F)c5nc(C)n(C(C)C)c5c4)n3)nc2)CC1.CS(=O)(=O)O | BT-12 | cell viability, MTT |  | 10 µM, 72 h |  | inhibition | 80.6% |
| CCCC(CCC)C(=O)O | HBL-1 |  |  | 1 µM, 120 h |  | viability | 98.8% |
| Cc1cnc(Nc2ccc(OCCN3CCCC3)cc2)nc1Nc1cccc(S(=O)(=O)NC(C)(C)C)c1 | iCell cardiomyocytes hiPSC-derived | impedance |  | concentration not given, 2 h | reference: vehicle | beat amplitude | 107% |
| O=C(CCCCCN1C(=O)c2cccc3cccc(c23)C1=O)NO | HBL-1 |  |  | 0.1 µM, 120 h |  | viability | 138% |
| CC(C)n1cnc2c(Nc3cccc(Cl)c3)nc(NCCO)nc21 | HeLa expressing Ub(G76V)-GFP | Ub(G76V)-GFP degradation, cycloheximide chase |  | 12 µM |  | inhibition | 6% |
| Cc1cn([C@H]2C[C@H](O)[C@@H](CO)O2)c(=O)nc1N | HBL-1 |  |  | 0.5 µM, 120 h |  | viability | 128% |
| O=C(C[C@@H](C(F)F)n1ccc(F)n1)N1CCC(O)(Cn2cnc3c(cnn3-c3ccc(F)cc3)c2=O)CC1 | CHP-212 resistant cells (pooled) | PI flow cytometry |  | 0.3 µM, 24 h |  | cells in G1 phase | 73.7% and 74.4% and 71.3% |
| COc1cnc2cccc(N3CCc4c(cc(Cn5ccnc5C)cc4-c4cn(C)nc4C(F)(F)F)C3=O)c2c1 | ChaGo-K-1 | cell growth, inhibitor |  | 120 h |  | EC50 | > 30 µM |
| O=P(O)(O)C(O)(Cn1ccnc1)P(=O)(O)O | MDA-MB-231 | AlamarBlue |  | 1.9 µM, 48 h | reference: control | viability | 101 ± 2% |
| COc1ccc(-c2nc(N3CCOCC3)c3sc(CN(C)c4ncc(C(=O)NO)cn4)cc3n2)cn1 | BT-12 | cell viability, MTT |  | 10 µM, 72 h |  | inhibition | 94.5% |
| Cn1cc(-c2ccc(-c3cncc(Cl)c3N3CCC4(CCNC4=O)CC3)cc2)cn1 | COLO 205 | gene expression, microarray, refers to: TUBD1 mRNA |  | concentration not given, 6 h | reference: untreated cells | log2 fold change | -1.72 |
| Nc1ncn([C@H]2C[C@H](O)[C@@H](CO)O2)c(=O)n1 | HBL-1 |  |  | 0.1 µM, 120 h |  | viability | 77.6% |
| COc1cc(/C=C/C(=O)N2CCC=CC2=O)cc(OC)c1OC | MDA-MB-468 | quantitative RT-PCR, refers to: MAPK10 |  | 30 µM, 8 h | reference: untreated cells | mRNA level | 87.2 ± 49.8% |
| CCn1cc(-c2cc(Cn3ccoc3=N)cc3c2CCN([C@@H](C)c2cc(OC)ccn2)C3=O)c(C(F)(F)F)n1 | KNS-62 | cell growth, inhibitor |  | 120 h |  | EC50 | 6.94 µM |
| CN1CCc2c(c3ccccc3n2Cc2ccc(C(=O)NO)cc2)C1 | HBL-1 |  |  | 1 µM, 120 h |  | viability | 98.7% |
| Cn1cc(Nc2nccc(-c3ccc4c(c3)CN(C3COC3)CC[C@H]4NC(=O)c3cn(C(C)(C)C)nn3)n2)cn1 | human B cells |  |  | 100 nM, 64 h, stimulation-downregulated genes, together with: CD40L, anti-IgM, IL-21 |  | number of upregulated genes | 256 |
| COc1cc2ncnc(Nc3ccc(NC(=O)c4ccccc4)cc3)c2cc1OC | HeLa expressing Ub(G76V)-GFP | Ub(G76V)-GFP degradation, inhibitor, cycloheximide chase |  | 12 µM |  | inhibition | 23% |
| O=C(/C=C/c1ccc(O)cc1)c1ccc(O)cc1O | HBL-1 |  |  | 0.1 µM, 120 h |  | viability | 118% |
| CCCCCCOC(=O)[C@]1(O)C[C@@H]2O[C@@]1(C)n1c3ccccc3c3c4c(c5c6ccccc6n2c5c31)C(=O)NC4 | SK-OV-3 | ATP | 3D gellan gum culture | 1 µM, 4 days | reference: untreated | relative cell number | 67% |
| Clc1ccc(N/N=C(\c2ccccc2)c2ccccn2)nc1 | HBL-1 |  |  | 1 µM, 120 h |  | viability | 3.03% |
| COc1ccc(/C=C\c2cc(OC)c(OC)c(OC)c2)cc1OP(=O)(O)O | BT-12 | cell viability, MTT |  | 10 µM, 72 h |  | inhibition | 87.6% |
| Cc1cc(Nc2ncc(Cl)c(Nc3ccccc3S(=O)(=O)C(C)C)n2)c(OC(C)C)cc1C1CCNCC1 | CLB-GE | phosphoproteomics LC-MS/MS, refers to: FRS2 phosphorylation |  | 200 nM, 60 min | reference: untreated | log2 fold change | -2.2 |

A few entries again:
| Structure (SMILES) | cell line | test | test system | setting | scale | endpoint | result |
| --- | --- | --- | --- | --- | --- | --- | --- |
| COc1ccc(-c2nc(N3CCOCC3)c3sc(CN(C)c4ncc(C(=O)NO)cn4)cc3n2)cn1 | BT-12 | cell viability, MTT |  | 10 µM, 72 h |  | inhibition | 94.5% |
